Measurements of several laboratories.
Numbered parts are unrelated; each lists some results of a single study.

Study 1
Target: Phosphate system positive regulatory protein PHO4, full length, GST-tagged (PHO4, Saccharomyces cerevisiae, UniProt P07270, residues 1-312)
Method: competition protein-binding microarray
Form: double-stranded DNA, one strand shown
Sample: in vitro
Concentration: 2 µM
Notes: whole 60-bp probe, lowest competitor level
With: Cbf1 competitor, 0.05 µM
Direction: higher = stronger binding
Endpoint: fluorescence intensity
Residues (chain): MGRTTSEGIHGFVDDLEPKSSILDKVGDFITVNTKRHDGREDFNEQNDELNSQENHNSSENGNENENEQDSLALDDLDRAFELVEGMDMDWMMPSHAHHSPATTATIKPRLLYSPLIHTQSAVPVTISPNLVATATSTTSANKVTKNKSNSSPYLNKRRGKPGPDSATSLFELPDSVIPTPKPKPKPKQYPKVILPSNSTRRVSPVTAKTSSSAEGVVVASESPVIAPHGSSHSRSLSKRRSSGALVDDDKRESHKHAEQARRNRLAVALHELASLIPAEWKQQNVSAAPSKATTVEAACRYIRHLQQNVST
CTAACGAAGGTTTGACTGGTGGGTGACAAGCCAAGTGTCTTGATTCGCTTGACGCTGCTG: 3540 a.u.
ACAGAAACGAAGTATACCGTGCGATTGATTATGGTCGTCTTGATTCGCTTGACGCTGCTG: 5410 a.u.
CTTCTGTAAATTTGCCGAGTGGGTGGACGCGCCCCGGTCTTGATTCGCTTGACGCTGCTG: 4140 a.u.
TTGGCGCACTTACAGGACCTGACGACTTTGCCCCCGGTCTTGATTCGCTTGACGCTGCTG: 3360 a.u.
CGGGGTTAAGTTTTTCACGTGTGCTGCTTGCAGCAGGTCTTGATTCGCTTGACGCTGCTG: 11800 a.u.
GTTATTCTCTAGTGTTTCGTGCTAAAATAACCGAGTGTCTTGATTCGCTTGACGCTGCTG: 6370 a.u.
CATACCCAACCTTGGCGCGTGGGTGAAGATATTTGTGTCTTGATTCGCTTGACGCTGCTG: 13000 a.u.
TGCGCAACAACTTGTGCGGTGGGTGTATGTCTAGAAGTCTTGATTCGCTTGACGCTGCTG: 6540 a.u.
AGGTGCTGCAACAAAAGCAAGTCCCACTGGACCTTTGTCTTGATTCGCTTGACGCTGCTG: 3580 a.u.
CTCAAAAGCTTGGGGTGCGTGGGACGGCGCTGCTCGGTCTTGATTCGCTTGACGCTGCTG: 8730 a.u.
CCGCCTAGCAAACACCTCGTGCCAGTCATTACCGACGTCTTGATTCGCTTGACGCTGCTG: 13800 a.u.
TGCAAGTGAGTATGGCATGTGGTGGTGGGATTAGAGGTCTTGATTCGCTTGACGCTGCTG: 12800 a.u.
GATAATGACACACAGCACGCAAGTACAAGTGTCAATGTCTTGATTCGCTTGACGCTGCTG: 7050 a.u.
AAAGCGGTAATTTGTCAAGTGGGTGCAGATATCTATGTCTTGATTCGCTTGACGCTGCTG: 4530 a.u.
CTTCTGTAAATTTGATTCGTGGGTGGACGCGCCCCGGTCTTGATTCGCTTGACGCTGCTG: 5300 a.u.
AAAGATTTGCCTTTGCCCGTGCCGAAAGCAGGCTGTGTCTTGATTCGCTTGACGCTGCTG: 7430 a.u.

Study 2
Target: Interferon regulatory factor 5, full length, phosphomimetic (IRF5, Homo sapiens, UniProt Q13568-2, residues 1-514, K96S/S451D/S453D/S456D/S462D)
Method: protein-binding microarray
Form: double-stranded DNA, one strand shown
Sample: in vitro
Concentration: 250 nM
Notes: 60-bp whole probe
With: salmon DNA 0.4 mg/ml
Reference: random background probes
Direction: higher = stronger binding
Endpoint: log fluorescence
Shared flanks, not repeated: GCCTAGCAC … GTCTTGATTCGCTTGACGCTGCTG
GACGGACTGGGGTTTCGCGACGTGCTA: -0.298 z-score
CTTTGACTCTTTCTGTCAGTGTGCTAG: 2.63 z-score
TGAACTAGCGGGTCTTGCAGTGTGCTA: -0.154 z-score
TTAGGGTTCCTTCTCCTTTAGTGCTAG: -0.17 z-score
TTAGTACTGAGTCTCGATTAGTGCTAG: 0.534 z-score
GACGGACTGGGAATCGGGACGTGCTAG: -0.574 z-score
ATAGGTCTCCTTTTCCTTTAGTGCTAG: 0.111 z-score
TTAGGTCTCCTTTTCCTTTAGTGCTAG: 0.249 z-score
TGTCATTTTCTCTTATTCTAGTGCTAG: 2.47 z-score
TTACGTTTCGGTATCGGTTAGTGCTAG: 11.5 z-score
TCATGCCTGTTTTTCCCACTGTGCTAG: 0.433 z-score
TCATGTCTGCCTTTCAAACTGTGCTAG: 0.0897 z-score
TTATGTTTCGGTTTCGGTTAGTGCTAG: 11.9 z-score
GACGGTATCGACACTGGGGTCGTGCTA: 1.95 z-score
TTAGGTTCCCTTTTCCTTTCGTGCTAG: 1.94 z-score
TTAGGTTTCGACTATCAGTTAGTGCTA: 8.36 z-score
TTAAGTTTCCTTTCCCTTTAGTGCTAG: 2.76 z-score
GACGGTTTCGGGTTTCGGGCCGTGCTA: 7.31 z-score
GGATATATATCATTTAATTAGTGCTAG: 0.954 z-score
GACGGACTTGACACTGGGGACGTGCTA: -0.524 z-score
TGGGTTGTAGGTTTTCTGAAGGTGCTA: -0.295 z-score
CCTTCTCTAACCTCTCTAATAGTGCTA: 0.326 z-score
GAGGGACTGGGGTATCGGGACGTGCTA: 0.131 z-score
CTACTTCTGTTTTTGCTTTCGTGCTAG: 3.16 z-score

Study 3
Target: RNA binding protein fox-1 homolog 2, RRM domain, GST-SBP tag (RBFOX2, Homo sapiens, UniProt O43251-10, residues 100-194)
Method: RNA Bind-n-Seq
Form: RNA
Sample: in vitro
Concentration: 365 nM
Notes: natural RNA segment, single round, ends assumed
Reference: no-protein control
Direction: higher = stronger binding
Endpoint: RBNS enrichment (R)
Target sequence (chain): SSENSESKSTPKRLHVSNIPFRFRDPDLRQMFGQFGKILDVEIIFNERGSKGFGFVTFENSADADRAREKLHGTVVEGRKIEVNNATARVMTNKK
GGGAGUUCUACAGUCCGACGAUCUAAUUCAGUGUCCCAAUGGUGUCCUAGGGAGGCAGCAGACGUUUCGUUUGUCCUCAGUAAGAGCUGAAUCCUUAAAAAUUUAAGAAACUACUUUCAGCUUCCUGCUCCACUGGAAUUCUCGGGUGCCAA: 0.249
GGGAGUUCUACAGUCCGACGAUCAUAAGAUGGCCGAAUUACUGAAAUCACCAUUAUACCUCUUCCAUAAAACGACUCCAAAGUUAGACCUGCCUGUUGGGGAGAAUUCUAUAGACAGAAGGUCAAUGUUGUCCUGGAAUUCUCGGGUGCCAA: 1.05
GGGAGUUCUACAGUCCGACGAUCCUAGGGCCGCCCCUCUGGAAAGGUUCCAUGUGUCUCCAUCCCCAUCCCUUACUCUUCGGGUCAGCUGUUGAGAAGAGGCGGGUUUUCUUCAUUGGCCUAGAUUUUGCGGCUGGAAUUCUCGGGUGCCAA: 0.376
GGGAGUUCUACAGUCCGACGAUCGAAUCCAGGGGCCUGCACUGAUCGGGUAGCAGCUACUUUGCCUGUCCUUGGCCGUCUCCCUCAGCUCUGCCUGGGCUCCGAGGGAGAUGGAAGUCCGUCAGGGAACAGGUUGGAAUUCUCGGGUGCCAA: 0.536
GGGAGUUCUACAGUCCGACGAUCAGGAGACUGUAGAGUUUUGGGGGAGGGGUGGCAAGGGUGCCCAAGCGUCUCCCACCUUUGGUACCAUCUCUAGUCAUCCUUCCUCCCGGAAGUUGACAAGACACAUCUUGUGGAAUUCUCGGGUGCCAA: 0.276
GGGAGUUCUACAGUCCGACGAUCCUGGGCAUCUUCUACUAAUGGCCUCGGCUUCCCUCUUUCCAUCCAGGAAUCAGUCCUGUAGCUUGGGUGCCUCCUUAUUUGUUAAUUAGUGGCUUUUCAUGUUCUCCUUUUGGAAUUCUCGGGUGCCAA: 0.34
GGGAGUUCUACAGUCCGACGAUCAGGCCUGGGACAGAGUCAAGGCUCAGAGAAUAAAGGUAGCUAAUCUCAUCAUAAUAUUUUUAUUAGAAUGUUCUGAUGAUAAAAAUAAAACUUGUUUUCUUUAAAGAAAAUGGAAUUCUCGGGUGCCAA: 0.709
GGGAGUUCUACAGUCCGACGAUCUCAGGACACUUUACGGGAUCAAAGUGGGUCUACACCAGUGCUGCUUCCUGAAUGUUUGUGUGUGAACCCUUGUUUCCUCCAAAACAAACGACAGCAACGAAAACUCCUUAUGGAAUUCUCGGGUGCCAA: 0.585
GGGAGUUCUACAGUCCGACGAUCGGCUGAGGGGGAGCUGCGUCUUGCUAGGGCUUCCCCCUUCUCCCCAUCCCGGUCUCCAGAGACCCAGCUUCUGAGAGACAGGGUGUGGGCAUCUCCAUGCCCCUAUAAAGUGGAAUUCUCGGGUGCCAA: 1.48

Study 4
Target: Prothrombin, mature alpha-thrombin (F2, Homo sapiens, UniProt P00734)
Method: aptamer microarray, sandwich
Form: DNA with 2'F-ANA
Sample: in vitro
Concentration: 200 nM
Notes: whole 15-mer aptamer, many near background
With: Cy3 exosite-II aptamer, 400 nM
Direction: higher = stronger binding
Endpoint: mean fluorescence intensity
Sequence: GGTTGGTGTGGTTGG
2'F-ANA at 3 4 5 6 9 14: 49.1 a.u.
2'F-ANA at 2 6 7 8 9 10 12 15: 161 a.u.
2'F-ANA at 6 7 8 9 10 11 12 13: 152 a.u.
2'F-ANA at 1 2 3 4 6 7 10 11 14: 47.3 a.u.
2'F-ANA at 1 2 4 5 6 8 12 13 15: 78.4 a.u.
2'F-ANA at 1 5 6 8 9 12: 137 a.u.
2'F-ANA at 1 2 3 4 5 6 8 14: 46 a.u.
2'F-ANA at 1 4 6 7 8 9 10 11 12 14: 48 a.u.
2'F-ANA at 2 3 5 7 8 10 11 12 13 14 15: 49.9 a.u.
2'F-ANA at 1 2 5 6 8 14: 79.4 a.u.
2'F-ANA at 4 5 9 12 13 14: 44.1 a.u.
2'F-ANA at 1 2 5 8 12 13 15: 101 a.u.
2'F-ANA at 4 5 8 9: 75.9 a.u.
2'F-ANA at 1 2 6 7 9 12 14: 62.9 a.u.
2'F-ANA at 1 2 4 5 8 9 12 14: 48.4 a.u.
2'F-ANA at 1 6 7 9: 152 a.u.
2'F-ANA at 2 5 7 10 15: 46.4 a.u.
2'F-ANA at 1 4 5 6 9 10 11 12 15: 49.5 a.u.
2'F-ANA at 1 2 5 6 8 10: 44 a.u.
2'F-ANA at 2 5 6 9 10 12 13 14 15: 64.1 a.u.
2'F-ANA at 3 4 5 6 7 9 10 11 13 14: 50 a.u.
2'F-ANA at 3 4 5 6 7 9 12 14 15: 166 a.u.
2'F-ANA at 2 3 7 9 10 11: 385 a.u.
2'F-ANA at 2 6 7 8 9 12 14 15: 175 a.u.

Some of these lines once more (study 1):
TGCAAGTGAGTATGGCATGTGGTGGTGGGATTAGAGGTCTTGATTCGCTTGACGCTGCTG: 12800 a.u.
GATAATGACACACAGCACGCAAGTACAAGTGTCAATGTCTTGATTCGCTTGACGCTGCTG: 7050 a.u.
AAAGCGGTAATTTGTCAAGTGGGTGCAGATATCTATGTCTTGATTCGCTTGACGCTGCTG: 4530 a.u.
CTTCTGTAAATTTGATTCGTGGGTGGACGCGCCCCGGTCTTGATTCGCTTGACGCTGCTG: 5300 a.u.
AAAGATTTGCCTTTGCCCGTGCCGAAAGCAGGCTGTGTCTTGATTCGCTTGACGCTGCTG: 7430 a.u.
